Experimental data from different studies.
Compare with care: the assays were run in different laboratories.
Organism: Pseudomonas aeruginosa

`NC[C@H]1O[C@H](O[C@H]2[C@H](O)[C@@H](O[C@H]3O[C@H](CO)[C@@H](O)[C@H](N)[C@H]3O)[C@H](N)C[C@@H]2N)[C@H](O)[C@@H](O)[C@@H]1O` gave an MIC of 64 mg/L (broth microdilution; PA14, cation-adjusted Mueller-Hinton broth; 16 h, 37 °C).
`CCN1CCN(C(=O)N[C@@H](C(=O)N[C@@H]2C(=O)N3[C@@H]2SC(C)(C)[C@@H]3C(=O)O)c2ccccc2)C(=O)C1=O` gave an MIC of > 128 mg/L (R13-94 PER-producing isolate).
For `CC(C)Oc1c(-n2cc(-c3ccc(NC(=O)C(CC(N)=O)NC(=O)c4ccc(NC(=O)c5ccc(C#N)cc5)cc4)cc3)nn2)ccc(C(=O)Nc2ccc(C(=O)O)cc2)c1O` (stereo not shown), the MIC was 2 mg/L (PA14 ΔmexAB).
The MIC of `NC[C@H]1O[C@H](O[C@H]2[C@H](O)[C@@H](O[C@H]3O[C@H](CO)[C@@H](O)[C@H](N)[C@H]3O)[C@H](N)C[C@@H]2N)[C@H](O)[C@@H](O)[C@@H]1O` is reported as 85.8 µM (broth microdilution; CICC 21625).
For `N=C(N)c1ccc(OCc2cc(Br)cc(COc3ccc(C(=N)N)cc3)c2)cc1`, the MIC was > 200 mg/L (ATCC 27853; compound alone).
With `C[C@@H](O)[C@H]1C(=O)N2C(C(=O)O)=C(S[C@@H]3CN[C@H](C(=O)N(C)C)C3)[C@H](C)[C@H]12` the MIC was < 2 mg/L (27853).
For `O=[N+]([O-])c1ccc(O)c2ncccc12`, the MIC was > 100 µM.
`CO/N=C(\C(=O)N[C@@H]1C(=O)N2C(C(=O)O)=C(CSc3nc(=O)c(=O)[nH]n3C)CS[C@H]12)c1csc(N)n1` has an MIC of > 512 mg/L (CIP 27853, Mueller Hinton broth; overnight, 37 °C).
With `CN(C)c1ccc2nc3ccc(=[N+](C)C)cc-3sc2c1` the MIC was > 128 µM (ATCC BAA-2108, resistant; 18 h, 37 °C, dark).
`CO/N=C(\C(=O)N[C@@H]1C(=O)N2C(C(=O)O)=C(COC(C)=O)CS[C@H]12)c1csc(N)n1` has an MIC of < 0.5 mg/L (CIP 27853, Mueller Hinton broth; 37 °C).
For `COc1c(C(=O)Nc2ccc(C(=O)O)cc2)ccc2nc(-c3cc(NC(=O)C(CC(N)=O)NC(=O)c4ccc(NC(=O)c5ccc(C#N)cc5)cc4)cn3C)[nH]c12` (stereo not shown), the MIC was > 64 mg/L (PA14 ΔmexAB).
With `C=C/C=C(\C)CC[C@H]1C[C@@H](O)CC(=O)O1` the MIC was 64 mg/L (broth microdilution; KCCM 11321; 16 h, 37 °C, Mueller-Hinton broth).
The MIC of `CNC(C)C1CCC(N)C(OC2C(N)CC(N)C(OC3OCC(C)(O)C(NC)C3O)C2O)O1` (stereo not shown) is reported as 12.5 µM (broth microdilution, absorbance; clinical isolate P.A37, RPMI with 1640% FBS; 24 h, 37 °C).
The MIC of `CC[C@H](C)CCCCC(=O)N[C@@H](CCN)C(=O)N[C@H](C(=O)N[C@@H](CCN)C(=O)N[C@H]1CCNC(=O)[C@H]([C@@H](C)O)NC(=O)[C@H](CCN)NC(=O)[C@H](CCN)NC(=O)[C@H](CC(C)C)NC(=O)[C@@H](CC(C)C)NC(=O)[C@H](CCN)NC1=O)[C@@H](C)O` is reported as 0.855 µM (broth microdilution; ATCC 10145, cation-adjusted Mueller-Hinton broth).
With `CC1(C)S[C@@H]2[C@H](NC(=O)[C@H](N)c3ccccc3)C(=O)N2[C@H]1C(=O)O` the MIC was > 400 µM (broth microdilution; clinical isolate, Mueller-Hinton broth; 24 h, 37 °C).
The MIC of `N=C(N)c1ccc(OCCC(CCOc2ccc(C(=N)N)cc2)c2ccccc2)cc1` (stereo not shown) is reported as > 200 mg/L (ATCC 27853; compound alone).
For `CC1(C)S[C@@H]2[C@H](NC(=O)[C@H](N)c3ccccc3)C(=O)N2[C@H]1C(=O)O`, the MIC was > 128 µM (ATCC BAA-2108, resistant; 18 h, 37 °C, dark).
For `O=C(Cc1ccccc1)N[C@@H]1C(=O)N2C(C(=O)O)=C(CSc3cccc4cccnc34)CS[C@H]12`, the MIC was > 128 mg/L (27853).
`c1ccc2[nH]c(CNCC34CC5CC(CC(C5)C3)C4)nc2c1` gave an MIC of > 128 mg/L (ATCC 27853).
`CNC(C)C1CCC(N)C(OC2C(N)CC(N)C(OC3OCC(C)(O)C(NC)C3O)C2O)O1` (stereo not shown) gave an MIC of 2 mg/L (clinical isolate JMI 1045324).
With `CC(C)(O/N=C(\C(=O)N[C@@H]1C(=O)N2C(C(=O)[O-])=C(C[n+]3ccccc3)CS[C@H]12)c1csc(N)n1)C(=O)O` the MIC was > 128 mg/L (R13-23 PER-producing isolate).
`CC(C)C[C@@H]1NC(=O)[C@@H](Cc2ccccc2)NC(=O)[C@H](CCN)NC(=O)[C@@H](NC(=O)[C@H](CCN)NC(=O)[C@@H](N)[C@@H](C)O)CCNC(=O)[C@H]([C@@H](C)O)NC(=O)[C@H](CCN)NC(=O)[C@H](CCN)NC1=O` has an MIC of 0.78 mg/L (ATCC 27853; in combination, checkerboard, added: rifampicin).

For quick reference, copied from above:
`CO/N=C(\C(=O)N[C@@H]1C(=O)N2C(C(=O)O)=C(CSc3nc(=O)c(=O)[nH]n3C)CS[C@H]12)c1csc(N)n1` has an MIC of > 512 mg/L (CIP 27853, Mueller Hinton broth; overnight, 37 °C).
For `CC(C)Oc1c(-n2cc(-c3ccc(NC(=O)C(CC(N)=O)NC(=O)c4ccc(NC(=O)c5ccc(C#N)cc5)cc4)cc3)nn2)ccc(C(=O)Nc2ccc(C(=O)O)cc2)c1O` (stereo not shown), the MIC was 2 mg/L (PA14 ΔmexAB).
For `COc1c(C(=O)Nc2ccc(C(=O)O)cc2)ccc2nc(-c3cc(NC(=O)C(CC(N)=O)NC(=O)c4ccc(NC(=O)c5ccc(C#N)cc5)cc4)cn3C)[nH]c12` (stereo not shown), the MIC was > 64 mg/L (PA14 ΔmexAB).
